Published values from different studies.
Protocols differ between the studies behind these lines. Numbers after ± are the reported error.
Spike glycoprotein: Spike glycoprotein (Severe acute respiratory syndrome coronavirus 2, UniProt P0DTC2)
rep main protease: Replicase polyprotein 1ab, main protease (rep, Severe acute respiratory syndrome coronavirus 2, UniProt P0DTD1)

`COc1ccc([C@H](Cc2ccncc2)c2ccccc2)cc1OC1CCCC1` has an EC50 of > 100 µM (SARS-CoV-2; viral replication, GFP plate reader screen; BetaCov/Belgium/GHB-03021/2020; cell-based).
`Cc1ncccc1-c1nc2cc(C(=O)NCCCc3ccccc3)ccc2o1` has an efficacy of 45.2% (SARS-CoV-2; cytopathic effect; USA_WA1/2020; round 2, 5-point).
`Cc1nc(N(C)CCC(O)c2ccccc2)c2ccsc2n1` (centres unmarked) gave a remaining activity of 54% (Lassa mammarenavirus; viral replication; Huh-7; 10 µM, 72 h).
With `C[C@H]1CC[C@@]2(OC1)O[C@H]1C[C@H]3[C@@H]4CC[C@@H]5C[C@@H](O[C@@H]6O[C@H](CO)[C@H](O)[C@H](O)[C@H]6O[C@@H]6O[C@H](CO)[C@@H](O)[C@H](O)[C@H]6O)CC[C@]5(C)[C@H]4CC[C@]3(C)[C@H]1[C@@H]2C` the Kd was 7.21 µM (Spike glycoprotein; binding).
`Cn1cncc1[C@@](N)(c1ccc(Cl)cc1)c1ccc2c(c1)c(-c1cccc(Cl)c1)cc(=O)n2C` gave an EC50 of > 100 µM (SARS-CoV-2; viral replication, high-content imaging screen; cell-based).
`COP(=S)(OC)Oc1ccc([N+](=O)[O-])c(C)c1` has a Ki of 290 ± 45.8 µM (rat CYP2D; bufuralol 1'-hydroxylation, non-competitive inhibitor; rat Sprague-Dawley, liver microsomes; 10 min, pH 7.4, with: bufuralol 4 to 134 µM).
`CCCN1CCN(CCCNC(=O)c2cc3c(Cl)nc4ccccc4c3s2)CC1` gave an AC50 of 3.98 µM (SARS-CoV-2; cytopathic effect, cell-based CPE; USA_WA1/2020; round 2, 5-point dilution).
`Nc1ncnc2c([C@@H]3N[C@H](CO)[C@@H](O)[C@H]3O)c[nH]c12` gave an inhibition of 99.9% (Zaire ebolavirus; viral replication; HeLa, Kikwit; 200 µM).
With `COCC(=O)N1CC(=O)N[C@@H](CC(C)C)c2nc(cs2)C(=O)N[C@@H](Cc2ccccc2)c2nc(C)nn2CC(=O)N[C@@H](C(C)C)C1` the remaining activity was 111% (Lassa mammarenavirus; viral replication; Huh-7; 10 µM, 72 h).
`COc1ccc(CC(=O)NC2CCN(Cc3ccc(-c4ccccc4OC)cc3)C2)cc1` (centres unmarked) gave an efficacy of 44.2% (SARS-CoV-2; cytopathic effect; USA_WA1/2020; retest, 8-point, duplicates).
The MIC90 of `Cn1c(=O)ccc2ccc(F)c(CCNC[C@H]3CN(c4cnc5c(n4)NC(=O)CO5)C(=O)O3)c21` is reported as < 0.015 mg/L (Legionella pneumophila).
The viability difference of `CNC(=O)[C@@H](NC(=O)[C@H](CC(C)C)[C@H](O)C(=O)NO)C(C)(C)C` is reported as -26.1% (Daboia russelii; C2C12; 100 µM, with: Daboia russelii venom MH; relative to: venom alone).
With `CCc1nc(C)c(CNc2nc3c(s2)c(C)nn3C)s1` the remaining activity was 65% (Lassa mammarenavirus; viral replication; Huh-7; 10 µM, 72 h).
`COc1cccc(CNC(=O)C2CCN(Cc3cc4ccccc4n3Cc3ccccc3)CC2)c1OC` has an efficacy of 46.8% (SARS-CoV-2; cytopathic effect; USA_WA1/2020; round 2, 5-point).
`CC(=O)N1CCN([C@H]2CCN(C(=O)N(C)[C@H](C)c3cc(C(F)(F)F)cc(C(F)(F)F)c3)[C@@H](c3ccc(F)cc3C)C2)CC1` has an EC50 of > 25.1 µM (SARS-CoV-2; viral replication, high-content imaging screen; cell-based).
For `CCN(CC)CCNC(=O)c1cc(-c2ccc(Br)s2)nc2ccccc12`, the AC50 was 7.94 µM (SARS-CoV-2; cytopathic effect, cell-based CPE; USA_WA1/2020).
For `Cc1cc(/C=C/c2ccccc2)cnc1N`, the remaining activity was 45% (Lassa mammarenavirus; viral replication; Huh-7; 10 µM, 72 h).
`CC[C@H](C)[C@H](NC(=O)[C@H](CC(C)C)NC(=O)[C@H](Cc1c[nH]c2ccccc12)NC(=O)[C@H](CCC(N)=O)NC(=O)[C@@H](NC(=O)[C@H](Cc1ccccc1)NC(=O)[C@H](C)NC(=O)[C@H](CCCCNC(=O)COCCOCCNC(=O)COCCOCCNC(=O)CC[C@H](NC(=O)CCCCCCCCCCCCCCCCCCC(=O)O)C(=O)O)NC(=O)[C@H](CCC(N)=O)NC(=O)[C@H](C)NC(=O)[C@@H](NC(=O)[C@H](CCCCN)NC(=O)[C@H](CC(=O)O)NC(=O)[C@H](CC(C)C)NC(=O)C(C)(C)NC(=O)[C@@H](NC(=O)[C@H](CO)NC(=O)[C@H](Cc1ccc(O)cc1)NC(=O)[C@H](CC(=O)O)NC(=O)[C@H](CO)NC(=O)[C@@H](NC(=O)[C@H](Cc1ccccc1)NC(=O)[C@@H](NC(=O)CNC(=O)[C@H](CCC(=O)O)NC(=O)C(C)(C)NC(=O)[C@@H](N)Cc1ccc(O)cc1)[C@@H](C)O)[C@@H](C)O)[C@@H](C)CC)[C@@H](C)CC)C(C)C)C(=O)N[C@@H](C)C(=O)NCC(=O)NCC(=O)N1CCC[C@H]1C(=O)N[C@@H](CO)C(=O)N[C@@H](CO)C(=O)NCC(=O)N[C@@H](C)C(=O)N1CCC[C@H]1C(=O)N1CCC[C@H]1C(=O)N1CCC[C@H]1C(=O)N[C@@H](CO)C(N)=O`: “subjects with treatment-induced ADA” 0% (measured: anti-drug antibodies; healthy subjects; 0.5 mg, postbaseline, multiple ascending dose, titre ≥1:20).
For `COc1cccc(-c2ccccc2NC(=O)C2CCN(Cc3ccccc3F)CC2)c1`, the maximum response was 88.3% (SARS-CoV-2; cytopathic effect; USA_WA1/2020; round 1, 5-point).
`Cc1nc2n(n1)CC(=O)N[C@@H](C(C)C)CN(C(=O)C1CCOCC1)CC(=O)N[C@@H](CC(C)C)c1nc(cs1)C(=O)N[C@H]2Cc1ccccc1` gave a remaining activity of 109% (Lassa mammarenavirus; viral replication; Huh-7; 10 µM, 72 h).
`CN1C(=N)N[C@](C)(c2cc(NC(=O)c3ccc(F)cn3)ccc2F)CS1(=O)=O` has an inhibition of -0.623% (rep main protease; reporter gene (mKate2), inhibitor; 20 µM).
Under “patients with adverse event”, `Cn1cnc(Cn2c(=O)[nH]/c(=N\c3cc4cn(C)nc4cc3Cl)n(Cc3cc(F)c(F)cc3F)c2=O)n1` is recorded as 0% (human, normal renal function; oral, 375 mg, treatment-related decreased GFR, Severe severity).
`CCc1c(C(=O)C(N)=O)c2c(OCC(=O)O)cccc2n1Cc1ccccc1` — result for “time to death”: > 24 h (Daboia russelii; North population, mouse; 120 µg, venom preincubated, observed to 24 h).
For `O=C(/C=C/c1ccc(O)c(O)c1/C=C/c1ccc(O)c(O)c1)O[C@H](Cc1ccc(O)c(O)c1)C(=O)O`, the Kd was 8.08 µM (Spike glycoprotein; binding, biolayer interferometry).
For `C[C@H](Cc1ccc(O)c(O)c1)[C@@H](C)Cc1ccc(O)c(O)c1`, the EC50 was > 100 µM (SARS-CoV-2; viral replication, GFP plate reader screen; cell-based).
`Cc1cnn(CCC(=O)N2CC(=O)N[C@@H](CC(C)C)c3nc(cs3)C(=O)N[C@@H](Cc3ccccc3)c3nc(C)nn3CC(=O)N[C@@H](C(C)C)C2)c1` has a remaining activity of 93% (Lassa mammarenavirus; viral replication; Huh-7; 10 µM, 72 h).
With `CCCN(CCC)CCCNC(=O)C1CCCN(Cc2nc(-c3ccc(Cl)cc3)oc2C)C1` (centres unmarked) the efficacy was 87.6% (SARS-CoV-2; cytopathic effect; USA_WA1/2020; retest 8-point).
`COc1cccc([C@@H](C)NCCCc2ccccc2Cl)c1` has an EC50 of 16.6 µM (SARS-CoV-2; viral replication, GFP plate reader screen; cell-based).
With `O=C1NCCCOc2cccc(c2)C2c3ccc(cc3CCN2C(=O)c2ccccn2)Oc2ccc(O)c1c2` (centres unmarked) the Emax was 56.8% (Lassa mammarenavirus; viral replication; Huh-7; concentration not given).
For `Cc1[nH]c(/C=C2\C(=O)Nc3ccccc32)c(C)c1CCC(=O)O` (single isomer, unassigned), the EC50 was > 50.1 µM (SARS-CoV-2; viral replication, high-content imaging screen; BetaCov/Belgium/GHB-03021/2020; cell-based).
`CC(C)CN(C[C@@H](O)[C@H](Cc1ccccc1)NC(=O)O[C@H]1CCOC1)S(=O)(=O)c1ccc(N)cc1` has an inhibition of -0.0641% (rep main protease; reporter gene (mKate2), inhibitor; 20 µM).
With `CC(=O)c1ccc2c(c1)N(CCCN(C)C)c1ccccc1S2` the EC50 was > 100 µM (SARS-CoV-2; viral replication, GFP plate reader screen; cell-based).
With `COc1cccc2c1OCCCn1cc(nn1)CCN(Cc1ccc(C)s1)CCNC(=O)[C@H](Cc1ccccc1)NC2=O` the Emax was 89.4% (Lassa mammarenavirus; viral replication; Huh-7; concentration not given).
With `Cc1cc(C)cc(-c2ccc(CN3CCCC3C(=O)NCc3cccc(F)c3)cc2)c1` (centres unmarked) the maximum response was 18.1% (SARS-CoV-2; cytopathic effect; USA_WA1/2020; retest, 8-point, duplicates).
With `NC(=O)C(c1ccccc1)(c1ccccc1)[C@@H]1CCN(CCc2ccc3c(c2)CCO3)C1` the EC50 was > 25.1 µM (SARS-CoV-2; viral replication, GFP plate reader screen; cell-based).

Some of these lines once more:
`CC(=O)N1CCN([C@H]2CCN(C(=O)N(C)[C@H](C)c3cc(C(F)(F)F)cc(C(F)(F)F)c3)[C@@H](c3ccc(F)cc3C)C2)CC1` has an EC50 of > 25.1 µM (SARS-CoV-2; viral replication, high-content imaging screen; cell-based).
`COc1ccc([C@H](Cc2ccncc2)c2ccccc2)cc1OC1CCCC1` has an EC50 of > 100 µM (SARS-CoV-2; viral replication, GFP plate reader screen; BetaCov/Belgium/GHB-03021/2020; cell-based).
`CC(C)CN(C[C@@H](O)[C@H](Cc1ccccc1)NC(=O)O[C@H]1CCOC1)S(=O)(=O)c1ccc(N)cc1` has an inhibition of -0.0641% (rep main protease; reporter gene (mKate2), inhibitor; 20 µM).
For `Cc1[nH]c(/C=C2\C(=O)Nc3ccccc32)c(C)c1CCC(=O)O` (single isomer, unassigned), the EC50 was > 50.1 µM (SARS-CoV-2; viral replication, high-content imaging screen; BetaCov/Belgium/GHB-03021/2020; cell-based).
